Assay results of several laboratories.
Each line is one published result; not all experiments were run side by side. “And” joins repeats or separate records; there may be more than shown. Numbers after ± are the reported error.

N#C[C@@H]1CC(F)(F)CN1C(=O)CNC(=O)c1ccnc2c(NC(=O)CCOCCOCCOCCOCCOCCOCCNC(=O)[C@H](CCCCNC(=O)CN3CCN(CC(=O)[O-])CCN(CC(=O)[O-])CCN(CC(=O)[O-])CC3)NC(=O)CCCc3ccc(I)cc3)cccc12.[177Lu+3] — tracer uptake (U-87 MG tumour model; host not given, bone; 4 h, tumour-bearing): 2.29 %ID/g
COc1cccc(OC)c1-c1cc(C(=O)NC2(C(=O)O)C3CC4CC(C3)CC2C4)nn1-c1ccc(C(=O)N(C)CCCN(C)C(=O)[C@H](CCCCNC(=O)[C@H](CC(C)C)NC(=O)C2OC2C(=O)O)NC(=O)CN2CCN(CC(=O)[O-])CCN(CC(=O)[O-])CCN(CC(=O)[O-])CC2)cc1C(C)C.[177Lu+3] (mixture of isomers) — tracer uptake (HT-29 tumour model; host not given, bone; 24 h, tumour-bearing): 0.09 %ID/g
CCN(CC)CC#CCNc1ccnc2cc(Cl)ccc12 — revertants (Salmonella typhimurium; mini-Ames test; TA102; 1000.0 µg/well, without S9): 45 revertants/well and 53 revertants/well
Nc1nc2cc(C(=O)c3ccc(F)cc3)ccc2[nH]1 — revertants (Salmonella typhimurium; Ames preincubation test; TA1537; 78.0 µg/plate, without S9): 13.7 revertants/plate
N#C[C@@H]1CCCN1C(=O)CNC(=O)c1ccnc2ccc(OCCCN3CCN(C(=O)CCc4ccc(O)c(CN5CCN6CC(=O)[O][Al-]([18F])([O]C(=O)C5)[O]c5ccc(CCC(=O)N7CCN(CCCOc8ccc9nccc(C(=O)NCC(=O)N%10CCC[C@H]%10C#N)c9c8)CC7)cc5C6)c4)CC3)cc12 (some centres unmarked) — tracer uptake (U-87 MG tumour model; host not given, intestine; 2 h, tumour-bearing): 4.03 %ID/g
O=C(Nc1cnccc1-c1ccc([18F])nc1)c1ccnc(NC(=O)C2CC2)c1 — SUV (GSK-3β imaging tracer; FVB/NJ mice, both sexes, brain; intravenous, 3 min, early frames, no P-gp inhibitor): 0.29 ± 0.14
O=C1NC2(CC2)COc2ncc(F)cc2[C@H]2COCCN2c2ccn3ncc1c3n2 — revertant colonies (Salmonella typhimurium; Ames test; TA102; 1500 µg/plate, 48 h, added: rat liver S9): 414 ± 19 revertants/plate
O=C(Nc1cnccc1-c1ccc([18F])cc1)c1ccnc(NC(=O)C2CC2)c1 — SUV (GSK-3β imaging tracer; FVB/NJ mice, both sexes, brain; intravenous, 2 min, early frames, no P-gp inhibitor): 0.94 ± 0.28
CNC(=O)C1CCCN(C(=O)C2CC3CCC2N3C(=O)[C@@H]2C[C@@H](O)CN2C(=O)NCc2cccc(Cl)c2F)C1 (mixture of isomers) — remaining activity (CYP3A4 (human); inhibitor, time-dependent inhibition; 16.7 µM, preincubated without NADPH, added: testosterone substrate; relative to: negative control): 101%
CC(C)Cc1ccc(C(C)C(=O)N[C@@H](CCCCNC(=O)CCOCCOCCOCCOCCOCCOCCNC(=O)CN2CCN(CC(=O)[O-])CCN(CC(=O)[O-])CCN(CC(=O)[O-])CC2)C(=O)Nc2cccc3c(C(=O)NCC(=O)N4CC(F)(F)C[C@H]4C#N)ccnc23)cc1.[177Lu+3] (some centres unmarked) — tracer uptake (U-87 MG tumour model; host not given, heart; 4 h, tumour-bearing): 2.89 %ID/g
CC(C)OCCOCc1ccc(OCC(O)CN(N=O)C(C)C)cc1 (centres unmarked) — mutagenicity (Salmonella typhimurium, Escherichia coli; enhanced Ames test; TA100, TA1535, WP2 uvrA; concentration not given, 30 min pre-incubation, 37 °C, 30% uninduced hamster S9): negative
Cl.NCc1ccc2c(c1)CN(C1CCC(=O)NC1=O)C2=O (centres unmarked) — minimum viability (HuH-1; CellTiter-Glo; concentration not given, 72 h): 61.7 ± 3.76%
O=C1C2CC3CC1CC(C(=O)N1CCN(c4ccc([N+](=O)[O-])c5ncccc45)CC1)(C3)C2 — fold increase in revertants (Escherichia coli; Ames test; WP2 uvrA pKM101; 0.31 µg/well, without S9 activation; relative to: vehicle): 0.9
Clc1cc2nc(c1)CNCc1cc(Cl)cc(n1)CNC2.[Cu+2] — half-wave potential (Cu(II)/Cu(I) redox couple; cyclic voltammetry; DMF; added: TBAP; relative to: Fc/Fc+): -652 mV
COc1cccc(OC)c1-c1cc(C(=O)NC2(C(=O)O)C3CC4CC(C3)CC2C4)nn1-c1ccc(C(=O)N(C)CCOCCOCCN(C)C(=O)[C@H](CCCCNC(=O)[C@H](CC(C)C)NC(=O)C2OC2C(=O)O)NC(=O)CN2CCN(CC(=O)[O-])CCN(CC(=O)[O-])CCN(CC(=O)[O-])CC2)cc1C(C)C.[177Lu+3] (mixture of isomers) — tracer uptake (HT-29 tumour model; host not given, stomach; 7 days, tumour-bearing): 0.039 %ID/g
C=C(NC(=O)c1csc(-c2nc3c(cc2O)-c2nc(cs2)C(=O)NC(C(C)O)C(=O)NC(=C(C)OC)c2nc(cs2)C(=O)NC2c4nc(cs4)C(=O)NC(COC(=O)c4c5c6c(cccc6n4O)COC(=O)C(OC4CC(C)(O)C(N(C)C)C(C)O4)C2OC5)c2nc-3cs2)n1)C(N)=O (centres unmarked) — Vz/F (Sprague-Dawley rat, male, plasma; intravenous infusion, 6 mg/kg, multiple doses, day 1): 31.1 L/kg
CC(C)(C)NCC(SS(=O)(=O)O)c1ccccc1 (centres unmarked) — body weight decrease (Schistosoma mansoni; perfusion day 44; infected Swiss Webster mice; 600 mg/kg single dose, dosed day 15 post-infection; relative to: vehicle control): 8%
COc1cc2nc(c1)CNCc1cc(OC)cc(n1)CNC2.[Cu+2] — cathodic peak potential (Cu(II)/Cu(I) redox couple; cyclic voltammetry; DMF; added: TBAP; relative to: Fc/Fc+): -861 mV
COCC1CN(C2CCN(c3cc(OC)c(Nc4ncc(Br)c(Nc5ccc6c(c5P(C)(C)=O)OCCO6)n4)cc3C)CC2)C1 — grade ≥3 treatment-related AEs (EGFR-mutant NSCLC patients; oral, 10 mg once daily): 0%
N#C[C@@H]1CC(F)(F)CN1C(=O)CNC(=O)c1ccnc2c(NC(=O)[C@H](CCCCNC(=O)CCOCCOCCOCCOCCOCCOCCNC(=O)CN3CCN(CC(=O)[O-])CCN(CC(=O)[O-])CCN(CC(=O)[O-])CC3)NC(=O)CCCc3ccc(I)cc3)cccc12.[177Lu+3] — tracer uptake (U-87 MG tumour model; host not given, pancreas; 72 h, tumour-bearing): 0.48 %ID/g

Repeated from above:
O=C1C2CC3CC1CC(C(=O)N1CCN(c4ccc([N+](=O)[O-])c5ncccc45)CC1)(C3)C2 — fold increase in revertants (Escherichia coli; Ames test; WP2 uvrA pKM101; 0.31 µg/well, without S9 activation; relative to: vehicle): 0.9
Clc1cc2nc(c1)CNCc1cc(Cl)cc(n1)CNC2.[Cu+2] — half-wave potential (Cu(II)/Cu(I) redox couple; cyclic voltammetry; DMF; added: TBAP; relative to: Fc/Fc+): -652 mV
COc1cccc(OC)c1-c1cc(C(=O)NC2(C(=O)O)C3CC4CC(C3)CC2C4)nn1-c1ccc(C(=O)N(C)CCOCCOCCN(C)C(=O)[C@H](CCCCNC(=O)[C@H](CC(C)C)NC(=O)C2OC2C(=O)O)NC(=O)CN2CCN(CC(=O)[O-])CCN(CC(=O)[O-])CCN(CC(=O)[O-])CC2)cc1C(C)C.[177Lu+3] (mixture of isomers) — tracer uptake (HT-29 tumour model; host not given, stomach; 7 days, tumour-bearing): 0.039 %ID/g
